Assay results pooled from the literature.
Numbered parts are unrelated; each lists some results of a single study. Positions count from the first letter of the parent shown.

Block 1 — technique: RNA Bind-n-Seq; form: RNA; sample: in vitro; concentration: not given; setting: RNA with constant flanks, ends assumed; relative to: input RNA pool; reading: higher = stronger binding
Target: RING finger protein unkempt homolog, zinc fingers 1-6, GST-SBP tag (UNK, Homo sapiens, UniProt Q9C0B0, residues 30-357)
Sequence of UniProt Q9C0B0 (30-357, looked up): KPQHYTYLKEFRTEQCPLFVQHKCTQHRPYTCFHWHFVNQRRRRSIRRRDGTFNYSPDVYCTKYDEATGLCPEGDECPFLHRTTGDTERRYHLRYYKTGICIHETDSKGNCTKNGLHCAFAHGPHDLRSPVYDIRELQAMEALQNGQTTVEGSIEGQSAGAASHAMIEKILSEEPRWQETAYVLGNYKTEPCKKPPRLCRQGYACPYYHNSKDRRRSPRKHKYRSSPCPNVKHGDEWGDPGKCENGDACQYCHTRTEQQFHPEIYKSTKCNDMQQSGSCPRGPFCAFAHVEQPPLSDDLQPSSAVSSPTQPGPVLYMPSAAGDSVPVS
Oligonucleotide | bound/input enrichment
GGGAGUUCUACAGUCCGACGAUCCAUGGCCAUGGUAAAAUGGAACUUCCAGAUUACAGACAGUGGAAAAUUGAAGGGACGCCAUCCGAAACGGUGCAGAAGAAGCUUGCUGCCCGAGGGCUGAGGGAUCCAUGGGCUCGCAAUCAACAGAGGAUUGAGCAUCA | 0.217 ratio
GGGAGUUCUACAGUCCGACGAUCAAACCAACUAAAAACAUGAUUAACAUCAACAGCCGCCUGCAGGAAGUCUUUGGCUGUGCCAUCCGGGCUGCAUAUCCAGACUUGGAGAACCCUCCCCUGAUCGUGACACCAAGUCAGCAGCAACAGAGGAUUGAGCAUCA | 0.266 ratio
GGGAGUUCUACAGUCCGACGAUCCUGCCCUACGCGCUGCAUAAGUGGAGCUCCUUCUCCUCCACCUACCUUCCCGAGAACAUUUCCGUGGAUAAACCAAAUGAUCAGUCUUCCAGAUGGUCUUCAGAGAGCAACUAUCCUCCCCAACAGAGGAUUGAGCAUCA | 0.353 ratio
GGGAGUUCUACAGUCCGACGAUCCAAGAAACAGAAGUUGCCAUUGGCUACUGCUUGGCCUUUGAGCACAGAGAAAAAAUGUUUAACCGACUGAGGAUCGAGUCAAAGGACUUACUGUUGUACAGCAAUGUUAAGAAGUGAACACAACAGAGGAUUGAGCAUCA | 0.185 ratio
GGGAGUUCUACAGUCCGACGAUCGGUGUAUCUAACUGGUGCACAAAUUACAUCAGGAUCAAUCAUGAUUUCUUAAAGUCUGGACCGCUGAUCCAAACCAACUAGGUACUUCCAUACGUAUAUGGAAUGGAAUGUGGUGUCCUUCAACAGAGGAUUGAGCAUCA | 0.816 ratio
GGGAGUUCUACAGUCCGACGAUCGUGUUCUGUUUUAUUUUGUUUUUUCACUUAUUCCUCAUAACAGUUUGUGAAACCGGUAUGUCCGCCCUUUUAUGAAUUGGCCAGAGAGGAUGAGUGGUCGGCCUAGGUCAUAUGUCUAGGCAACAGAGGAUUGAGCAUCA | 0.387 ratio
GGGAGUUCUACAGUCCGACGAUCUUGCCUGAAAAUGAAGAUGAAUUGGAGAGCACCAAUAGACGCUAUACCAAGAGAGACUGCCGCACUUUUCUCAGAACUAGCGAGACGGGCAUUGUGGAUCAGGUUAUGGUAACUCUCAAUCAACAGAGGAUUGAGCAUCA | 0.724 ratio
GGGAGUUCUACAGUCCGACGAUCGUUUUAUUACUUCUUGGAGAUGAAUCCAUGCAGAAGUUAUUUGAAGGAGGAAAAGGCCGUGUAUUUCAAAGGGUACUCUCUUGGAUCCCAUCAAAUAACCACCAGCUACAGCUUGCUGGACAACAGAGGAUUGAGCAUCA | 0.147 ratio

Block 2 — target: MAFF, bZIP domain (human); technique: DHFR protein complementation; sample: yeast; relative to: wild-type JUN-FOS pair; reading: higher = stronger binding
Setting: single substitutions, most at no-binding floor
Starting sequence: JUN, bZIP domain (human); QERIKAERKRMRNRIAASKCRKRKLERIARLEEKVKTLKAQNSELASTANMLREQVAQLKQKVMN; partner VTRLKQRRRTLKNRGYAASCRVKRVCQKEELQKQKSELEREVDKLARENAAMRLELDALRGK
Substitution | binding fitness [natural log]
L38G | -1.5
L52R | -1.46
K39V | -1.45
S43W | -1.52
A46D | -1.46
V56R | -1.29
E32P | -1.4
E54R | -1.45
K39A | -1.54
N42W | -1.26
N42V | -0.925
A57P | -1.5
S43I | -1.42
A29D | -1.45
I28R | -1.38
A29K | -1.5
T48D | -1.45
S47R | -1.33
K36L | -1.44
Q55L | -1.23
A29C | -1.49
L38K | -1.55
A40D | -1.56
V35R | -1.57
L52M | -1.32

Block 3 — technique: RNA Bind-n-Seq; form: RNA; sample: in vitro; concentration: 200 nM; setting: whole 134-nt RNA, ends assumed; together with: 150 mM KCl; relative to: input library; reading: higher = stronger binding
Target: Fragile X messenger ribonucleoprotein 1, C-terminal low-complexity region (Fmr1, Mus musculus, UniProt P35922)
Oligonucleotide | log2 enrichment
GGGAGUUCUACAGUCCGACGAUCUCCUGUGCUACACAUCGUAUGUACCGAAUCGGCCCCCCGGGCCCCCCGGGGCCCCCCGGAAAGUAUUAUGUUACGCCGUUCGGAUCUGCAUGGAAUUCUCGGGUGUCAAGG | -0.4
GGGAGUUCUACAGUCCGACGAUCUGGGAGGUGGGUUUUGUUUAUUUUUUUAGCUCAUUUCCAGGGGUGGGAAUUUUUUUUUAAUAUGUGUCAUGAAUAAAGUUGUUUUUGAAAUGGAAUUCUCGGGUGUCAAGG | 0.377
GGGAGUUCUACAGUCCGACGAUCGUCCUGUGCUACACAUCGUAUGUACCGAAUCGGGUUUUUUUGGGAGGGAAAAAAAGGGAAAGUAUUAUGUUACGCCGUUCGGAUCUGCACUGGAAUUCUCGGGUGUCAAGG | -0.109
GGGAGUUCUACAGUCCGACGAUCCUCAAGUCCUGUGCUACACAUCGUAUGUACCGAAUCGGGGCCGGGGCCGGCCGGAAAGUAUUAUGUUACGCCGUUCGGAUCUGCACUUCCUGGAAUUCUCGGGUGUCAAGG | -0.236
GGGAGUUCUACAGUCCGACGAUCGCAGGAAGUAAAAACAAAUGGAAAUGCUUAGGAUAGUGGCAGGGGUGGGGGUUGCUAAGGAAAGGGUGGGAUGGGAGUGGGUAAAGAGUUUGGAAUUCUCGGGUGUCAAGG | 0.135
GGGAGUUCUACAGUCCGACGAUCUCAAGUCCUGUGCUACACAUCGUAUGUACCGAAUCGGGCCCGGCCCGGGGCCCGGAAAGUAUUAUGUUACGCCGUUCGGAUCUGCACUUCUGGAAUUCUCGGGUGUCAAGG | -0.557
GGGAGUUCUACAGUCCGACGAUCUGGCCCUGGUGGCAUGCGGGGUGGAAGAGGUGGCCUCAUGGAUCGUGGUGGUCCCGGUGGAAUGUUCAGAGGUGGCCGUGGUGGAGACAGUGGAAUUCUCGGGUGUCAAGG | -0.079
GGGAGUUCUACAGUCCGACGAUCUUAUUGAACUGACAAGGUCCUCCCUGUGUUGUAGCAAGGACCAGACUGGCUUGAGCUCUCUGAGAUGACCGAGCAGCCAGACUAUGACCUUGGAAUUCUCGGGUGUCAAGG | 0.588
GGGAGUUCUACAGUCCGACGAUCACCAUGCAGGUGGGCAUCUUUGGGAAGUGGGGCAAGGGGGGGAUAGGGAGGGGGGUAACACUUUGGGUACAGGUGGUCCCAGGUCGUUUCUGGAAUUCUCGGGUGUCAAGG | 0.724

Block 4 — target: CCNA1, cyclin fold, Cln2 fusion (human); technique: yeast growth competition, sequencing; sample: yeast; setting: weak parent motif; relative to: not given; reading: higher = stronger binding
Starting sequence: PKMYT1 docking peptide (human); SFEPRNLLSLFED; partner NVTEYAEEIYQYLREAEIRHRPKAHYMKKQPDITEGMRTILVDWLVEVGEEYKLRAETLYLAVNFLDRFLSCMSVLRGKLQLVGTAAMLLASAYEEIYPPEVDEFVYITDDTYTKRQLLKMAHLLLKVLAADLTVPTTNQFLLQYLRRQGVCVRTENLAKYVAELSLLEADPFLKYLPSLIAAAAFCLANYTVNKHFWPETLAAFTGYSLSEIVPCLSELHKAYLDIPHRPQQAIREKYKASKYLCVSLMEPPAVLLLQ
Substitution | normalised enrichment score
SFEPRNLLSLFEM [D13M] | 0.126
SFEFRNLLSLFED [P4F] | 0.0748
SFEPRNLLSLFEQ [D13Q] | 0.113
SFAPRNLLSLFED [E3A] | 0.149
SFEPRNLLDLFED [S9D] | 0.268
SFEPLNLLSLFED [R5L] | 0.315
SFEPRNLLSLFEE [D13E] | -0.0608
SFEPRNLLSLFVD [E12V] | -0.154
SFEPVNLLSLFED [R5V] | 0.0418
NFEPRNLLSLFED [S1N] | 0.308
SFEPRNLQSLFED [L8Q] | 0.171
SFNPRNLLSLFED [E3N] | 0.251
SFEPNNLLSLFED [R5N] | 0.0186
SFEPRNLLSLFEN [D13N] | 0.191
SFEPRNLLSLFDD [E12D] | -0.0105
SPEPRNLLSLFED [F2P] | 0.111
SFEPRNCLSLFED [L7C] | 0.348
SFEPRNLLSLFEC [D13C] | -0.00784
SIEPRNLLSLFED [F2I] | -0.182
SFEPRNLLSSFED [L10S] | 0.0406
SFEPRNLLSLYED [F11Y] | 0.484
SFEPRNLTSLFED [L8T] | 0.461
SFEPRNLISLFED [L8I] | 0.141
SFEPRNLLGLFED [S9G] | 0.0832

Repeated from above (block 3):
Oligonucleotide | log2 enrichment
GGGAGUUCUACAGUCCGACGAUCUCCUGUGCUACACAUCGUAUGUACCGAAUCGGCCCCCCGGGCCCCCCGGGGCCCCCCGGAAAGUAUUAUGUUACGCCGUUCGGAUCUGCAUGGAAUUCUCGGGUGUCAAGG | -0.4
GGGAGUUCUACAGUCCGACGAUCUGGGAGGUGGGUUUUGUUUAUUUUUUUAGCUCAUUUCCAGGGGUGGGAAUUUUUUUUUAAUAUGUGUCAUGAAUAAAGUUGUUUUUGAAAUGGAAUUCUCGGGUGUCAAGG | 0.377
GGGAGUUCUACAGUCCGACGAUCGUCCUGUGCUACACAUCGUAUGUACCGAAUCGGGUUUUUUUGGGAGGGAAAAAAAGGGAAAGUAUUAUGUUACGCCGUUCGGAUCUGCACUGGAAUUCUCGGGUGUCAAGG | -0.109
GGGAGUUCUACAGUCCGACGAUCCUCAAGUCCUGUGCUACACAUCGUAUGUACCGAAUCGGGGCCGGGGCCGGCCGGAAAGUAUUAUGUUACGCCGUUCGGAUCUGCACUUCCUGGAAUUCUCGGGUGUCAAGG | -0.236
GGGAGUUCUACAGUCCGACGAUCGCAGGAAGUAAAAACAAAUGGAAAUGCUUAGGAUAGUGGCAGGGGUGGGGGUUGCUAAGGAAAGGGUGGGAUGGGAGUGGGUAAAGAGUUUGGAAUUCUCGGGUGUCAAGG | 0.135
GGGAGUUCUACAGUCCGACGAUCUCAAGUCCUGUGCUACACAUCGUAUGUACCGAAUCGGGCCCGGCCCGGGGCCCGGAAAGUAUUAUGUUACGCCGUUCGGAUCUGCACUUCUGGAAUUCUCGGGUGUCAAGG | -0.557
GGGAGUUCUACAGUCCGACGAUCUGGCCCUGGUGGCAUGCGGGGUGGAAGAGGUGGCCUCAUGGAUCGUGGUGGUCCCGGUGGAAUGUUCAGAGGUGGCCGUGGUGGAGACAGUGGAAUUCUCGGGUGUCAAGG | -0.079
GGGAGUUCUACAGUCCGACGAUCUUAUUGAACUGACAAGGUCCUCCCUGUGUUGUAGCAAGGACCAGACUGGCUUGAGCUCUCUGAGAUGACCGAGCAGCCAGACUAUGACCUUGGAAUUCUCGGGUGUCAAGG | 0.588
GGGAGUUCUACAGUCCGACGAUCACCAUGCAGGUGGGCAUCUUUGGGAAGUGGGGCAAGGGGGGGAUAGGGAGGGGGGUAACACUUUGGGUACAGGUGGUCCCAGGUCGUUUCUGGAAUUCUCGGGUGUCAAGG | 0.724
